Published values of several laboratories.
Lines come from different studies, so protocols differ.
Sequence of UniProt P33032 (whole entry, looked up): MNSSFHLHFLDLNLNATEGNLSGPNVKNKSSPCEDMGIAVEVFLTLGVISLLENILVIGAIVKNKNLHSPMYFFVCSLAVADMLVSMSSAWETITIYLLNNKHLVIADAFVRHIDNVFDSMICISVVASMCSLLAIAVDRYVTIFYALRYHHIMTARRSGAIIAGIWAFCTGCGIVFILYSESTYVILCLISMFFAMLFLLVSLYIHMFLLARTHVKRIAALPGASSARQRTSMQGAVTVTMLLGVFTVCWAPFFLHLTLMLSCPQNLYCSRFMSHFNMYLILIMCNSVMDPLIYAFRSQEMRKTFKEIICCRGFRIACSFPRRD
Sequence of UniProt Q12769 (whole entry, looked up): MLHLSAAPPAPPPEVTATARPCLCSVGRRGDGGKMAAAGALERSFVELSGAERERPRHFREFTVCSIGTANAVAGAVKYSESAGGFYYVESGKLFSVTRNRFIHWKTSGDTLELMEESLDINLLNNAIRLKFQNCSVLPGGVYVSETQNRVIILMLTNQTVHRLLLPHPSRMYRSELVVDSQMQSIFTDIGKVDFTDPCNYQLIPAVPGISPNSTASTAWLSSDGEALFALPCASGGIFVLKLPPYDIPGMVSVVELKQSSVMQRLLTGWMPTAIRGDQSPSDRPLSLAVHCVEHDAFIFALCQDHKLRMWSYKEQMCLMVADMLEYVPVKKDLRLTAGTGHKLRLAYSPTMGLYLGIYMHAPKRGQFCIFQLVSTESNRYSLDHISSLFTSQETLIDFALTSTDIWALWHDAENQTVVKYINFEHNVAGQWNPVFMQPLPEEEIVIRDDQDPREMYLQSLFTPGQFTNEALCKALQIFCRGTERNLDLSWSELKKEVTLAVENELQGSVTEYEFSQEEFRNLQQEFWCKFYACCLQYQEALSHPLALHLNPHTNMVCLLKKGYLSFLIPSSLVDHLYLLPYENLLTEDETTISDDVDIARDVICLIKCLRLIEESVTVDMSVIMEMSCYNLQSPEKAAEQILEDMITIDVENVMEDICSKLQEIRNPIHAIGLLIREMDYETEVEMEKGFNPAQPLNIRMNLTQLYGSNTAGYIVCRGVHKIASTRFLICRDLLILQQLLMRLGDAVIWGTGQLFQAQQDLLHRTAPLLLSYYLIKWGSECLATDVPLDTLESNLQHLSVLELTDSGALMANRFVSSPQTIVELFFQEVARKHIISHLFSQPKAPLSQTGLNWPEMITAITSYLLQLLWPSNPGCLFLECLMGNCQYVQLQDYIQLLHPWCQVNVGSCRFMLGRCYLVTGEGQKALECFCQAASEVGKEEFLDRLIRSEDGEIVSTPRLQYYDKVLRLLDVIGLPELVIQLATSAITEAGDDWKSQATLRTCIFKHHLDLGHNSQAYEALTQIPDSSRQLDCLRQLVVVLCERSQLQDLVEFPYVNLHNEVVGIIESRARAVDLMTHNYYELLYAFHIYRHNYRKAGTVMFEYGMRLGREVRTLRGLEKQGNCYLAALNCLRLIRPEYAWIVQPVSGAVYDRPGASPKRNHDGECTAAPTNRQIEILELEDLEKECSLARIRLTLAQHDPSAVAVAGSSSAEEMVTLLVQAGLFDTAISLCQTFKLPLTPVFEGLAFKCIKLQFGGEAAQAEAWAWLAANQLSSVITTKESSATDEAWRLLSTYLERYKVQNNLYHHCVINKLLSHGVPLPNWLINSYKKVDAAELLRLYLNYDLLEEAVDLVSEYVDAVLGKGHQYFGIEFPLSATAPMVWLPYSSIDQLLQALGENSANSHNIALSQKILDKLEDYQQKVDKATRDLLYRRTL

`CN1CC[C@]23c4c5ccc(O)c4O[C@H]2[C@@H](O)C=C[C@H]3[C@H]1C5`: G-protein activity “no effect” (CHO-WT cells; cell membranes without MOR; concentration not given, compound alone, basal).
`O=C(NC1CCCCCCC1)c1cc(-c2ccc(F)cc2F)c[nH]1` has an IC50 of 16.9 µg/mL (Vero; 48 h).
`C[C@@H]1CC[C@H]2[C@@H](C)C(=O)O[C@@H]3O[C@@]4(C)CC[C@@H]1[C@]32OO4` gave an IC50 of 21 nM (Plasmodium falciparum; cell growth; HB3).
`O=C1NC(=O)C(C2C3=C(CCCC3=O)Oc3ccc([N+](=O)[O-])cc32)C(=O)N1` (stereo not drawn) — result for mRNA level: “decreased” (mouse preadipocytes; qPCR, item: HSL; IC20, 14 days, adipogenic induction; baseline: untreated cells).
With `O=C(NC1CCCCCCC1)c1cc(-c2ccncc2Cl)c[nH]1` the IC50 was over 64 µg/mL (Vero; 48 h).
With `Cc1c(C(=O)c2cccc3ccccc23)c2cccc3c2n1[C@H](CN1CCOCC1)CO3` the EC50 was 1700 nM (TC-71; cytotoxicity, LDH release).
With `O=C(NC12CC3CC(CC(C3)C1)C2)c1cc(-c2ccncc2Cl)c[nH]1` the IC50 was over 64 µg/mL (Vero; 48 h).
`CNc1ncc2c(/C=C/C(=O)N3CCC4(CC3)OCCO4)nn(Cc3cccc(C)c3)c2n1` has an EC50 of 2520 nM (SKGT4; 120 h).
`C[C@H]1CN(c2n[nH]c3nc(N[C@H]4CC[C@H](NS(=O)(=O)CCC(F)(F)F)CC4)ncc23)CCO1` gave a remaining binding of 1.17 (Nuclear pore complex protein Nup160 (Homo sapiens, UniProt Q12769); Kinobeads competition, item: NUP160; 20 µM, unit not given; baseline: vehicle).
The IC50 of `COc1cc(Nc2ncc(F)c(Nc3ccc4c(n3)NC(=O)C(C)(C)O4)n2)cc(OC)c1OC` is reported as over 10000 nM (MC5R (Homo sapiens, UniProt P33032)).
The headache incidence of `CO[C@H]1C[C@@H]2CC[C@@H](C)[C@@](O)(O2)C(=O)C(=O)N2CCCC[C@H]2C(=O)O[C@H]([C@H](C)C[C@@H]2CC[C@@H](OC(=O)NCCOCCOCCOCCOCCOCCOCCOCCOCCC(=O)N3CCc4cc(Cn5nc(-c6ccc7oc(N)nc7c6)c6c(N)ncnc65)ccc4C3)[C@H](OC)C2)C[C@@H](O)[C@H](C)/C=C(\C)[C@@H](O)[C@@H](OC)C(=O)[C@H](C)C[C@H](C)/C=C/C=C/C=C/1C` is reported as 16.7% (patients with advanced solid tumours; intravenous, 6 mg weekly, any grade).
For `CC[C@H](C)[C@@H]1NC(=O)[C@@H]2CCCN2C(=O)[C@H](CC(C)C)NC(=O)[C@H](CC(C)C)NC(=O)CNC(=O)[C@@H](NC(=O)[C@@H](NC(=O)[C@H](CC(=O)O)NC(=O)CNC(=O)[C@@H](NC(=O)[C@H](C)NC(=O)CNC(=O)[C@H](CCCCN)NC(=O)[C@H](CC(C)C)NC(=O)[C@H](CC(C)C)NC(=O)[C@H](CCCCN)NC(=O)CNC(=O)[C@@H](NC(=O)[C@@H](N)CC(C)C)C(C)C)C(C)C)C(C)C)CSSC[C@@H](C(=O)O)NC1=O`, “log2 fold change” read -1.49 (RNA-seq, item: Fam129a; mouse, traumatic brain injury model, frontal cortex and hippocampus; dose not given; baseline: TBI alone).
The selectivity index of `CCCCCCC#Cc1cncc(-c2nnc(Sc3ccc([N+](=O)[O-])cc3[N+](=O)[O-])n2C)c1` is reported as 27 (Vero; baseline: Vero CC50 over Mtb IC50).
For `CN1C(=O)C(C2C3=C(CC(C)(C)CC3=O)Oc3c(O)cccc32)C(=O)N(C)C1=O` (stereo not drawn), mRNA level read “decreased” (mouse preadipocytes; qPCR, item: Pref-1; IC20, 14 days, adipogenic induction; baseline: untreated cells).
`COc1ccc(-n2nc(C(C)=O)s/c2=N\N=C(/C)c2ccc(NC(C)=O)cc2)cc1` has a viability of 6.09% (HepG2; 10 µM).
